Assay results of several laboratories.
Each line is one published result; not all experiments were run side by side. “And” joins repeats or separate records; there may be more than shown. ± marks the error that the study gave.
B1: PI4KB V434G (Homo sapiens, UniProt Q9UBF8-2); sequence looked up; chain MGDTVVEPAPLKPTSEPTSGPPGNNGGSLLSVITEGVGELSVIDPEVAQKACQEVLEKVKLLHGGVAVSSRGTPLELVNGDGVDSEIRCLDDPPAQIREEEDEMGAAVASGTAKGARRRRQNNSAKQSWLLRLFESKLFDISMAISYLYNSKEPGVQAYIGNRLFCFRNEDVDFYLPQLLNMYIHMDEDVGDAIKPYIVHRCRQSINFSLQCALLLGAYSSDMHISTQRHSRGTKLRKLILSDELKPAHRKRELPSLSPAPDTGLSPSKRTHQRSKSDATASISLSSNLKRTASNPKVENEDEPVRLAPEREFIKSLMAIGKRLATLPTKEQKTQRLISELSLLNHKLPARVWLPTAGFDHHVVRVPHTQAVVLNSKDKAPYLIYVEVLECENFDTTSVPARIPENRIRSTRSVENLPECGITHEQRAGSFSTGPNYDNDDEAWSVDDIGELQVELPEVHTNSCDNISQFSVDSITSQESKEPVFIAAGDIRRRLSEQLAHTPTAFKRDPEDPSAVALKEPWQEKVRRIREGSPYGHLPNWRLLSVIVKCGDDLRQELLAFQVLKQLQSIWEQERVPLWIKPYKILVISADSGMIEPVVNAVSIHQVKKQSQLSLLDYFLQEHGSYTTEAFLSAQRNFVQSCAGYCLVCYLLQVKDRHNGNILLDAEGHIIHIDFGFILSSSPRNLGFETSAFKLTTEFVDVMGGLDGDMFNYYKMLMLQGLIAARKHMDKVVQIVEIMQQGSQLPCFHGSSTIRNLKERFHMSMTEEQLQLLVEQMVDGSMRSITTKLYDGFQYLTNGIM
B2: CRYAA G98R (Homo sapiens, UniProt P02489); sequence looked up; chain MDVTIQHPWFKRTLGPFYPSRLFDQFFGEGLFEYDLLPFLSSTISPYYRQSLFRTVLDSGISEVRSDRDKFVIFLDVKHFSPEDLTVKVQDDFVEIHRKHNERQDDHGYISREFHRRYRLPSNVDQSALSCSLSADGMLTFCGPKIQTGLDATHAERAIPVSREEKPTSAPSS
B3: FAM126B 1-308 (Homo sapiens, UniProt Q8IXS8); chain MLGTDRCVVEEWLSEFKALPDTQITSYAATLHRKKTLVPALYKVIQDSNNELLEPVCHQLFELYRSSEVRLKRFTLQFLPELMWVYLRLTVSRDRQSNGCIEALLLGIYNLEIADKDGNNKVLSFTIPSLSKPSIYHEPSTIGSMALTEGALCQHDLIRVVYSDLHPQRETFTAQNRFEVLSFLMLCYNSAIVYMPASSYQSLCRMGSRVCVSGFPRQHEKHWKELCGRIVLDPEFMVQLLTGVYYAMYNGQWDLGQEVLDDIIYRAQLELFSQPLLVANAMKNSLPFDAPDSTQEGQKVLKVEVTPT
B4: lat-1 32-136 F69A (Caenorhabditis elegans, UniProt G5EDW2); chain TTDESGTISHTICDGEAAELSCPAGKVISIVLGNYGRASVAVCLPDNDIVPSNINCQNHKTKSILEKKCNGDSMCYFTVDKKTFTEDPCPNTPKYLEVKYNCVVP
B5: fbf-2 121-632 I480A (Caenorhabditis elegans, UniProt Q09312); sequence looked up; chain DFSQNVRCFSADIDRSKSYGSSKHYHLKYSRPALSRNSRSFTRSNNVLPTWSLDSNGEMRSRLSLSEVLDSGDLMKFAVDKTGCQFLEKAVKGSLTSYQKFQLFEQVIGRKDDFLKLSTNIFGNYLVQSVIGISLATNDDGYTKRQEKLKNFISSQMTDMCLDKFACRVIQSSLQNMDLSLACKLVQALPRDARLIAICVDQNANHVIQKVVAVIPLKNWEFIVDFVATPEHLRQICSDKYGCRVVQTIIEKLTADSMNVDLTSAAQNLRERALQRLMTSVTNRCQELATNEYANYIIQHIVSNDDLAVYRECIIEKCLMRNLLSLSQEKFASHVVEKAFLHAPLELLAEMMDEIFDGYAPHPDTGKDALDIMMFHQFGNYVVQCMLTICCDAVSGRRQTKEGGYDHAISFQDWLKKLHSRVTKERHRLSRFSSGKKMIETLANLRSTHPIYELQSSGHDSFKTDYFSTASEHDGPELEKNGIEEGSLMLEPRSNKSSVSVKFSSSGSHGDD

Molecule | tested on | test | system | setting | scale | measurement | value
ALB (Homo sapiens, UniProt P02768) | KLHDC1 (Homo sapiens, UniProt Q8N7A1) | cross-linking MS | – | added: DSSO | – | cross-linked residues | K223 to K376
DYNLRB1/DYNLL1/DYNLT1/DYNC1LI2/DYNC1I2/DYNC1H1 dynein-1 complex (Homo sapiens) | NINL/KASH5 chimera NINL CC, KASH5 LIC-BD, HaloTag | pull-down | – | – | – | Ka | > 1.6e+06 M⁻¹
STXBP3 (Homo sapiens, UniProt O00186) | ALB (Homo sapiens, UniProt P02768) | cross-linking MS | – | added: DSSO | – | cross-linked residues | K19 to K499
B1 (PI4KB V434G) | RAB11A (Homo sapiens, UniProt P62491) | co-IP | HEK-293T | – | baseline: wild type, higher = more binding | relative binding | 3.6 fold
B2 (CRYAA G98R) | ADH1 (Saccharomyces cerevisiae, UniProt P00330) | EDTA-induced ADH aggregation, absorbance, inhibitor | – | 250 µg | – | ADH aggregation suppression IC50 | 38 µg
CAM2 (Arabidopsis thaliana, UniProt P0DH97) | MLO2 439-573 (Arabidopsis thaliana, UniProt Q9SXB6) | split luciferase complementation | – | – | higher = stronger interaction | luciferase activity | 46000 units/mm^2
SPTA1/SPTB tetramer (Homo sapiens) | ANK1 (Homo sapiens, UniProt P16157) | radioligand binding | inside-out vesicles | 2.4 µM | higher = stronger inhibition | binding inhibition | > 95%
PGK1 (Homo sapiens, UniProt P00558) | MPHOSPH8 (Homo sapiens, UniProt Q99549) | cross-linking MS | cells | added: iqPIR | – | cross-linked residues | K48 to K356
GRM6 (Homo sapiens, UniProt O15303) | FGA (Homo sapiens, UniProt P02671) | cross-linking MS | – | added: DSSO | – | cross-linked residues | K859 to K476
colistin | Enterobacter cloacae | broth microdilution | clinical isolate RKI-No_136/15 | – | – | MIC | ≤ 0.5 µg/mL
B3 (FAM126B 1-308) | TTC7A (UniProt Q9ULT0) | SEC | – | – | – | binding | binds
B4 (lat-1 32-136 F69A) | tol-1 extracellular region (Caenorhabditis elegans) | SPR | – | – | baseline: wild type, higher = weaker binding | relative binding affinity | > 1000 fold
B5 (fbf-2 121-632 I480A) | gld-3 850-900 (Caenorhabditis elegans, UniProt Q95ZK7) | LacZ luminescence, yeast two-hybrid | – | – | baseline: wild-type FBF-2, higher = lower activity | LacZ activity decrease | 120 fold
ADSL (Homo sapiens, UniProt P30566) | Hemoglobin subunit alpha (Homo sapiens, UniProt P69905) | cross-linking MS | – | added: DSSO or DMTMM | – | cross-linked residues | K224 to D75
CALLLSAPRR (GOT2 (Gallus gallus); fluorescein label) | HSPA9 mature L450A (Homo sapiens, UniProt P38646) | FP | peptide | – | – | koff | 0.026 s⁻¹
SIRPA IgV domain-Fc fusion, bivalent (Homo sapiens) | CD47 (Homo sapiens, UniProt Q08722) | flow cytometry | H9 | 30 min, apparent, bivalent | – | EC50 | 62.6 nM
YAEGTFISDYSIAMDKIRQQDFVNWLLAQKGKKNDWKHNLTQ (GIP (Rattus norvegicus, UniProt Q06145)) | Gipr (Rattus norvegicus, UniProt P43219) | cAMP, agonist | peptide, HEK293 | FRET biosensor, stably transfected | – | EC50 | 0.47 nM
alpha-MSH mature (UniProt P01189) | Mc1r (Mus musculus, UniProt Q01727) | cAMP production, agonist, BRET EPAC sensor | HEK293 | 3 min | – | EC50 | 4.8 nM
CTLA4 extracellular domain, monomer (Homo sapiens) | ipilimumab Fab | SPR | – | – | – | kon | 317000 M⁻¹ s⁻¹ and 491000 M⁻¹ s⁻¹
EEF2K, pT348 (UniProt O00418) | CALM1 (Homo sapiens, UniProt P0DP23) | AlphaScreen or HTRF | – | – | – | IC50 | 0.78 ± 0.044 nM
Peginesatide | UT7/EPO | phosphorylation, agonist, refers to: phospho-STAT5 | – | 10 min | baseline: rHuEPO maximum | Emax | 101 ± 3%
FGB (Homo sapiens, UniProt P02675) | RBM15B (Homo sapiens, UniProt Q8NDT2) | cross-linking MS | – | added: DSSO | – | cross-linked residues | K51 to K706
SPP1 (Saccharomyces cerevisiae, UniProt Q03012) | REC107 V195D (Saccharomyces cerevisiae, UniProt P21651) | single-molecule force spectroscopy | – | loading rate 1 µm/s | – | rupture force | 82.4 pN
GSGAGKETSF | human MAGI1-2/6 PDZ construct (MBP fusion) | surface plasmon resonance | peptide | concentration not given | higher = stronger binding | normalised SPR binding response | 0 normalised RU
FGG (Homo sapiens, UniProt P02679) | ATP2B3 (Homo sapiens, UniProt Q16720) | cross-linking MS | – | added: DSSO | – | cross-linked residues | K231 to K754
VMRLQSETSV | human MAGI1-3/6 PDZ construct (MBP fusion) | automated holdup | peptide, crude extract | concentration not given, corrected by standard peak, unit not given | baseline: biotin control resin, higher = stronger binding | binding intensity | 0.197
MCM2 (Saccharomyces cerevisiae, UniProt P29469) | ORC6 (Saccharomyces cerevisiae, UniProt P38826) | cross-linking MS | – | hits only | – | interaction screen | cross-linked
FGA (Homo sapiens, UniProt P02671) | ME1 (Homo sapiens, UniProt P48163) | cross-linking MS | – | added: DSSO | – | cross-linked residues | K238 to K525
